Measured values from different studies.
Compare with care: the assays were run in different laboratories. Converted amounts (≈) assume the structure as drawn.

| Compound | target or system | test | system | setting | how to read | quantity | result |
| --- | --- | --- | --- | --- | --- | --- | --- |
| C=CC(=O)Nc1cccc(Cn2ncc3cnc(Nc4cnn(CCOC)c4)nc32)c1 | MAP3K4 human | binding, KINOMEscan |  | 100 nM | lower = stronger binding | percent of control | 100% |
| Nc1ncc(-c2cc(-c3cnn(CC(F)(F)F)c3)ncc2F)nc1C(=O)NC1CNCC(F)C1 (centres unmarked) | ERBB3 | KINOMEscan |  | 1 µM | reference: DMSO control | remaining binding | 100% |
| CC(C)c1ccc(N(C)c2ccc3c(c2)OCC[C@H]3CNc2cnccc2C(=O)O)cc1 | WM 266-4 | cell growth or viability, ATP luminescence |  | 7 days |  | IC50 | 0.0275 µM |
| CN1CCCNC(=O)c2cccc(c2)C(=O)NCCCN(C)CCCNc2cccc3c2C(=O)c2cccc(c2C3=O)NCCC1 | SAS | RNA-Seq, item: IL15RA mRNA |  | 1 µM, 6 h | reference: untreated cells | log2 fold change | 1 |
| CNS(=O)(=O)Nc1nccc(Cc2c(C)c3ccc(Oc4ncccc4F)cc3oc2=O)c1F | NCI-H1573 | cell viability |  | 7 days |  | IC50 | 0.0297 µM |
| Cc1ncsc1-c1ccc(C(C)NC(=O)C2CC(O)CN2C(=O)C(NC(=O)CCCCCCCCCCN2CCCC(Nc3ncc(Cl)c(Nc4ccccc4S(=O)(=O)C(C)C)n3)C2)C(C)(C)C)cc1 (centres unmarked) | 22Rv1 | RNA-seq, item: STUM mRNA |  | concentration not given | reference: DMSO | log2 fold change | -1.86 |
| COC1CN([C@H]2CC[C@H]([C@@]3(C)Oc4c(Cl)cc(C(=O)NCc5c(SC)cc(C)[nH]c5=O)c(C)c4O3)CC2)C1 |  | RNA-seq, item: AGPAT4 | human, whole blood | dose not given, 24 h | reference: pretreatment baseline | log2 fold change | 1.46 |
| C=C(NC(=O)c1csc(-c2nc3c(cc2O)-c2nc(cs2)C(=O)NC(C(C)O)C(=O)NC(=C(C)OC)c2nc(cs2)C(=O)NC2c4nc(cs4)C(=O)NC(COC(=O)c4c5c6c(cccc6n4O)COC(=O)C(OC4CC(C)(O)C(N(C)C)C(C)O4)C2OC5)c2nc-3cs2)n1)C(N)=O (centres unmarked) | Streptococcus pyogenes | broth microdilution |  |  |  | MIC90 | 0.0312 µg/mL (≈ 0.0217 µM) |

For quick reference, copied from above:
| Compound | target or system | test | system | setting | how to read | quantity | result |
| --- | --- | --- | --- | --- | --- | --- | --- |
| Cc1ncsc1-c1ccc(C(C)NC(=O)C2CC(O)CN2C(=O)C(NC(=O)CCCCCCCCCCN2CCCC(Nc3ncc(Cl)c(Nc4ccccc4S(=O)(=O)C(C)C)n3)C2)C(C)(C)C)cc1 (centres unmarked) | 22Rv1 | RNA-seq, item: STUM mRNA |  | concentration not given | reference: DMSO | log2 fold change | -1.86 |
